# Experimental data from different studies.
# A part holds a random share of what one study measured. Values joined by “and” are separate records of one study, mostly repeats; a detail may differ. Substitutions count along the parent as printed.

# Study 1
# Target: Runt-related transcription factor 1 (RUNX1, Homo sapiens, UniProt Q01196, residues 1-453, full length assumed)
# Chain of UniProt Q01196 (whole entry, looked up): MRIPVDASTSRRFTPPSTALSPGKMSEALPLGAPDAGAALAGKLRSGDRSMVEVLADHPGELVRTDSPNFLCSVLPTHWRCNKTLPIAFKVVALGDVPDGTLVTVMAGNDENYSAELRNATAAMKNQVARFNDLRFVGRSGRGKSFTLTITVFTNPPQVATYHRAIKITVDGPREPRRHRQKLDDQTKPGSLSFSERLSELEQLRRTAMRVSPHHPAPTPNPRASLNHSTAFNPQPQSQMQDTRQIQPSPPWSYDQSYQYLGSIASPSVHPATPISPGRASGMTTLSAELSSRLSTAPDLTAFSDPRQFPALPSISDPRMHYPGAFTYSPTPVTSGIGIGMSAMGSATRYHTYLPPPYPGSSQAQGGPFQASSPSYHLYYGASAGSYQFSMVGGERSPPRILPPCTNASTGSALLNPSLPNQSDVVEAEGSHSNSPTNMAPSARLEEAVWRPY
# Method: protein-binding microarray
# Form: double-stranded DNA, one strand shown
# Sample: in vitro
# Tested at: not given
# Notes: k-mer, scored over probes, only values ≥0.25
# Direction: higher = stronger binding
Strand,E-score
TCCGCAA,0.292
AATGCGG,0.313
ATACCAC,0.326
ACCGCGG,0.286
GAACCGC,0.333
GCGGTGA,0.298
AACCGCC,0.274
ACCGCAA,0.497
CACATTC,0.29
AAACCAC,0.468
TACCACA,0.429
ATTGTGG,0.307
CCTCAAC,0.258
CCACCGC,0.269
ACCGCGA,0.429
CGCAACC,0.252
ATTTGCG,0.321

# Study 2
# Target: Ras GTPase-activating protein-binding protein 1, RRM domain (G3BP1, Homo sapiens, UniProt Q13283)
# Chain of UniProt Q13283 (whole entry, looked up): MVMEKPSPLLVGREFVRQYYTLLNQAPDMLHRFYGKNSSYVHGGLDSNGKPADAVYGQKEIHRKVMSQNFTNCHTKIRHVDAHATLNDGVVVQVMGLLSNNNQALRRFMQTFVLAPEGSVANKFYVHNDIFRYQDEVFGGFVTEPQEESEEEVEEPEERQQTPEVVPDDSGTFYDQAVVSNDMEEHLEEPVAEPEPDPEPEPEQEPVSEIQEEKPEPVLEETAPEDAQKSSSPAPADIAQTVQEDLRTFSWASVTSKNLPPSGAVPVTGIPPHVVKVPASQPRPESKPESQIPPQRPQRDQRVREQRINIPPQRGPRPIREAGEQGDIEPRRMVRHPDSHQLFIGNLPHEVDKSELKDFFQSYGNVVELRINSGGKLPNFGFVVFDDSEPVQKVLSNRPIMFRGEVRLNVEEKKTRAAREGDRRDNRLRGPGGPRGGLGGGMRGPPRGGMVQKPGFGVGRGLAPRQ
# Method: RNA Bind-n-Seq
# Form: RNA
# Sample: in vitro
# Tested at: 1 µM
# Notes: whole 134-nt RNA, ends assumed
# Together with: 150 mM KCl
# Reference: input library
# Direction: higher = stronger binding
Strand,log2 enrichment
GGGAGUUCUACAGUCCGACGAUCGCAGGAAGUAAAAACAAAUGGAAAUGCUUCGGAUAGUGGCAGGGGUGGGGGUUGCUAAGGAAAGGGUGGGAUGGGAGUGGGUAAAGAAUUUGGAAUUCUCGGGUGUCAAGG,0.718
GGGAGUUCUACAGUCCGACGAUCGCAGGAAGUAAAAACAAAUGGAAAUGCUUCGGAUAGUGGCAGGGGUGGGGGUUGCUAAGGAAAGGCUGGGAUGGGAGUGGGUAAAGAGUUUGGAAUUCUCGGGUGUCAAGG,0.702
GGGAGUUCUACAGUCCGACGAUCCUGUGCUACACAUCGUAUGUACCGAAUCGGGCCCCCCCGGGCCCCCCCGGGGCCCCCCCGGGAAAGUAUUAUGUUACGCCGUUCGGAUCUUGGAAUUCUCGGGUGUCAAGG,-0.667
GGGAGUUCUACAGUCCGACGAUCUUGCGAAAAGGACCAAUUCCAGUGCCGGAACGAGCGCUGCAUCCCCUCUGUGUGGAGAUGCGACGAGGACGAUGACUGCUUAGACCACAGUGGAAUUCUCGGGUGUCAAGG,-0.0615
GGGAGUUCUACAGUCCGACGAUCCUCAAGUCCUGUGCUACACAUCGUAUGUACCGAAUCGGUGGAAAAAAAGGAGGAAAGUAUUAUGUUACGCCGUUCGGAUCUGCACUUCCAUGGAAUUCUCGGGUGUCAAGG,-0.145
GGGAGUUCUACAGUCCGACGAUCGUCCUGUGCUACACAUCGUAUGUACCGAAUCGGGGAAAGGGGUUUGGGGAAAAAGGGGAAAGUAUUAUGUUACGCCGUUCGGAUCUGCACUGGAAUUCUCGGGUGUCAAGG,1.51
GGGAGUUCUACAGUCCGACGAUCUGGCCCUGGUGGCAUGCGGGGAGGAAGAGGUGGCCUCAUGGAUCGUGGUGGUCCCGGUGGAAUGUUCAGAGGUGGCCGUGGUGGAGAUAGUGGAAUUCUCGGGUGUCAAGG,1.69
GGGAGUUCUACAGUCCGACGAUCUGCCAUAAGCGGCACCGGCACUGCCCGGUUGUCGUGUCCGAGGCCACCAUCGUGGGCGUCCGCAAGACCGGGCAGAUCUGGCCCAACGAUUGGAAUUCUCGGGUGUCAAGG,-0.724
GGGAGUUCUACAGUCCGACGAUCUUAAUGAUAUAAGUAGAGAGUAGUAUCCUGGUGGAGUUGUAACCACUAUUUUUGUUUUCUAGAUCCCUAUGGUUCAGGAGGCCAGAAAUUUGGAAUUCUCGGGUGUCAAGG,-0.451
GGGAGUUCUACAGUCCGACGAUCUCAAGUCCUGUGCUACACAUCGUAUGUACCGAAUCGGCCGGGGCCGGGGCCGGGGAAAGUAUUAUGUUACGCCGUUCGGAUCUGCACUUCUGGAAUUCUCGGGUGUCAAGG,-1.76
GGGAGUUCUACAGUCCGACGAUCACCAUGCAGGUGGUCAUCUUUGGGAAGUGGGGCAAGGGGGGGAUAGGGAGGGGGGUAACACUUUGGGAACAGGUGGUCCCAGGUCGUUUCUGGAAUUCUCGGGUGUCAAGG,-0.52
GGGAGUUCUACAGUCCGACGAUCUUGCGCCUGUCCCGGGUGAAGUGUGUCGGCCUCUCCGCACGCACCACGGAGACCAGCAGUGCAGUCAUGUGCCUGGACCUUGCAGCUUCCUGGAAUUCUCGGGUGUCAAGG,-0.354
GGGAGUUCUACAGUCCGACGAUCUCAAGUCCUGUGCUACACAUCGUAUGUACCGAAUCGGGUUUGGUUUGGGUUUGGGAAAGUAUUAUGUUACGCCGUUCGGAUCUGCACUUCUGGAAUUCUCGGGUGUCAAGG,-0.385
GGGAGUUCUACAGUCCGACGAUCUCCUCAAGUCCUGUGCUACACAUCGUAUGUACCGAAUCGGGGAGGAGGAGGGAAAGUAUUAUGUUACGCCGUUCGGAUCUGCACUUCCAGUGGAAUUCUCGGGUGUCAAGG,-0.191

# Study 3
# Target: Interferon regulatory factor 7, full length, phosphomimetic (IRF7, Homo sapiens, UniProt Q92985, residues 1-503, S101K/S471D/S472D/S475D/S476D/S477D/S483D/S484D/S487D)
# Method: protein-binding microarray
# Form: double-stranded DNA, one strand shown
# Sample: in vitro
# Tested at: 250 nM
# Notes: 60-bp whole probe
# Together with: salmon DNA 0.4 mg/ml
# Reference: random background probes
# Direction: higher = stronger binding
# Constant ends, left off below: GCCTAGCAC … GTCTTGATTCGCTTGACGCTGCTG
# Target sequence (chain): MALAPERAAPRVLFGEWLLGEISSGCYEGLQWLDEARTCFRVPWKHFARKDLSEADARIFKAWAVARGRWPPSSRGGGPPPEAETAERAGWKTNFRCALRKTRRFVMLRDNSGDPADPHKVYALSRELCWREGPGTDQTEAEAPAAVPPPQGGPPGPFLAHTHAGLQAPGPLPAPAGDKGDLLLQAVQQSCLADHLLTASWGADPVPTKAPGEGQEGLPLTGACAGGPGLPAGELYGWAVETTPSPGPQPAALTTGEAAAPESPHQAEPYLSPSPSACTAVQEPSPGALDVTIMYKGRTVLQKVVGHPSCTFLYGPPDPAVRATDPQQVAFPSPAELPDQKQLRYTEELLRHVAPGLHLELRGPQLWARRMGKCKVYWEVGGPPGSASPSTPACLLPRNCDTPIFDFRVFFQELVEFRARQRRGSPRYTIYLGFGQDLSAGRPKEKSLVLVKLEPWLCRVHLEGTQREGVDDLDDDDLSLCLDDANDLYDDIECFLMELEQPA
Strand,log fluorescence [z-score]
TTAGGTCTCGGTATGGGTTAGTGCTAG,1.79
GGTCTTCTGGGCTGTTTAGTCGTGCTA,-0.436
TTAGTTCTCGGTATCGGTTAGTGCTAG,2.78
TCACCTTTGCTTTCCTGACTGTGCTAG,0.401
TCAGAACTCAACTGTCTGACTGTGCTA,-0.122
TTAGGACTGCTTTTCCTTTGGTGCTAG,0.911
GACGGTTTCGGGTAACGGGACGTGCTA,7.95
TTAGGTATCGGGCATCGGTTAGTGCTA,-0.193
TCACTGCTCCTCTTTTTTACTGTGCTA,-0.366
TCATGCTTTCCTTTATGACTGTGCTAG,0.667
TTAGGACCGGGGACTGGGTTAGTGCTA,-0.222
TCACATTTTTTTATCAAACTGTGCTAG,0.993
GACGTTTTCAGTATCGAGACGTGCTAG,1.41
GACGGACTGCTTATCCTGAAGTGCTAG,-0.453
GACGATTCTAGTTTCGAGACGTGCTAG,5.39
TTAGGTATCGAGTTTCGGTTAGTGCTA,7.99
GAGAATTTCCACTTTGACTTGTGCTAG,1.38

# Study 4
# Target: CCNE2, cyclin fold, Cln2 fusion (human)
# Method: yeast growth competition, sequencing
# Sample: yeast
# Notes: weak parent motif
# Reference: not given
# Direction: higher = stronger binding
# Parent: HIRA docking peptide (human); SLSKRKLELEVET; partner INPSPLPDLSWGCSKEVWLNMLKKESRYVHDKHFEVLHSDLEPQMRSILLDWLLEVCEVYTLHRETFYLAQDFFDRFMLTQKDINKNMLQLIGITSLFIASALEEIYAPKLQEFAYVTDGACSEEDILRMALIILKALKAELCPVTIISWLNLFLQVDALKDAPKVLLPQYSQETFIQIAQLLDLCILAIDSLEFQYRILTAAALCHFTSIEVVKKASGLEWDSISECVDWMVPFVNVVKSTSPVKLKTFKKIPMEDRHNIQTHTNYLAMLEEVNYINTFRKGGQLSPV
Variant,normalised enrichment score
L9A,-0.177
E10A,-0.349
S1A,0.124
K4A,-0.549
L9F,-0.00301
E8A,0.566
E12A,-0.102

# Study 5
# Target: OGT, full length, His-tagged (human)
# Method: phage display, sequencing
# Sample: in vitro
# Tested at: 1 µg OGT
# Notes: single substitutions, 15-mer displayed peptide, unchanged parent 6.14
# Reference: input library
# Direction: higher = stronger binding
# Parent: peptide; VAYPNSYMPKYQIST; partner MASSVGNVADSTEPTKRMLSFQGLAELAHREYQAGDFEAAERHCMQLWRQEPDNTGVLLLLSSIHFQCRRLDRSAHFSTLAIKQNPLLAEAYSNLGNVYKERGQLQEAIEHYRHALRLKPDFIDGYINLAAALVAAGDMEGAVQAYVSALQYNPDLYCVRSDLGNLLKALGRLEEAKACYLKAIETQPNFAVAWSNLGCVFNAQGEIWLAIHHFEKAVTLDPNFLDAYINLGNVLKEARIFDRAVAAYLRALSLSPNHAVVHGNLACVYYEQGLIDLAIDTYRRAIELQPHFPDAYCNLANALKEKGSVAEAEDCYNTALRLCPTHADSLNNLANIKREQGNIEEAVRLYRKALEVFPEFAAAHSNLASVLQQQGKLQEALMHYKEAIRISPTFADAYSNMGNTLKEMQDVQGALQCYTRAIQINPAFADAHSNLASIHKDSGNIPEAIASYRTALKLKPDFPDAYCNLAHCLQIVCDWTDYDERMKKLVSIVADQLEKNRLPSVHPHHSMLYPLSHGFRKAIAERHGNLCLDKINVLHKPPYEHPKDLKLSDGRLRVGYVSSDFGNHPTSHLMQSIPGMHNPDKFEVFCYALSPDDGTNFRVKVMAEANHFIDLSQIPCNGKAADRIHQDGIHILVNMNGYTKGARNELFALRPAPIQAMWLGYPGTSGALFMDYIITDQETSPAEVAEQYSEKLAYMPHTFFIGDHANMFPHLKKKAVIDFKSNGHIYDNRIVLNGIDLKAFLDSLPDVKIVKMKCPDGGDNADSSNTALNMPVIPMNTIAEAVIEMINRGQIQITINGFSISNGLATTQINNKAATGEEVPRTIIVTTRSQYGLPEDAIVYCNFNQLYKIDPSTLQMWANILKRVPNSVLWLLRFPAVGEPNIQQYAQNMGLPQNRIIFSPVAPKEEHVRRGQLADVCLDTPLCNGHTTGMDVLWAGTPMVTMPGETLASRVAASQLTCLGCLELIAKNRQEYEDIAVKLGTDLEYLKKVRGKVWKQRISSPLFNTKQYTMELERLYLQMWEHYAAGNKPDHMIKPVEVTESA
Variant,fold enrichment [fold]
VAYPNSYMPKYGIST [Q12G],0.692
VAYPNSPMPKYQIST [Y7P],0.319
VAYPNSVMPKYQIST [Y7V],0.621
VAYPNVYMPKYQIST [S6V],6.83
VAYPNSYMPKYQIIT [S14I],15.5
VAYPNSYMPKYQLST [I13L],0.93
VAYPNSYMPKEQIST [Y11E],3.51
VAYPWSYMPKYQIST [N5W],5.42
VAYPNSMMPKYQIST [Y7M],0.691
VAYANSYMPKYQIST [P4A],6.75
VAYPNSYMVKYQIST [P9V],0.873
VAYPNSYMPKYQIPT [S14P],2.61
VAYPNSYMIKYQIST [P9I],2.22
VAYENSYMPKYQIST [P4E],8.58
VAYPNSHMPKYQIST [Y7H],0.689
VAYPNAYMPKYQIST [S6A],7.99

# Further values, each from its own experiment
Substance,target,test,system,conditions,how to read,quantity,result
"PhoQ, residues 284 288 289 292 302 303 SNGLAW","PhoP, residues 12 14 15 18 19 LWHSL (Escherichia coli, UniProt P23836)","Sort-seq, refers to: YFP reporter",E. coli,"PhoQ-PhoP variant library, together with: 10 µM Mg2+","reference: high Mg2+ state, higher = stronger signaling",fold induction,15.5 and 7.08

# Some of these lines once more (study 1):
Strand,E-score
GCGGTGA,0.298
AACCGCC,0.274
ACCGCAA,0.497
CACATTC,0.29
